Measured values pooled from the literature.
Lines come from different studies, so protocols differ.
Read-out: metabolic stability

SMILES | system | setting | measurement | result
O=C(Nc1cc(-c2ccnc3[nH]ccc23)c(Cl)cn1)[C@H]1CCC[C@@H](NC(=O)C(F)(F)F)C1 | rat, liver microsomes | – | microsomal CLint | 39.8 µL/min/mg
Cc1cc(C(=O)Nc2nc3cccc(C)c3n2[C@H]2CCCCN(C(=O)/C=C/CN(C)C)C2)ccn1 | rat, liver microsomes | – | microsomal CLint | 22.2 µL/min/mg
O=C(c1ccc(-c2cccc(C(F)(F)F)c2)cc1)N1CCN(c2ncccn2)CC1 | rat, liver microsomes | – | microsomal CLint | 242 µL/min/mg
CCC1(CC)CC(=O)N(C2CCOc3ccc(C(=O)NC4CC(C)(C)Oc5ccccc54)cc32)C(=N)N1 (stereo not shown) | rat, hepatocytes | – | hepatocyte CLint | 22.5 µL/min/10⁶ cells
COc1ccc(C(N)=O)cn1 | male Wistar rat, hepatocytes | 1 µM, pH 7.4 | hepatocyte CLint | 3.3 µL/min/10⁶ cells
CCC(CC)CNC(=N)NC(=N)NCCCCCCNC(=N)NC(=N)NCC(CC)CC | rat, hepatocytes | 1 µM | hepatocyte CLint | 10.7 µL/min/10⁶ cells
C=CC(=O)N1CCCC(n2c(=O)c3ncccc3n(Cc3ccc(Oc4ccccc4)cc3)c2=O)C1 (stereo not shown) | male Sprague-Dawley rat, hepatocytes | 1 µM | hepatocyte CLint | 147 µL/min/10⁶ cells
O=C(Nc1nc(C(F)(F)F)co1)C1c2ccccc2Oc2ccccc21 | rat, liver microsomes | 1 µM, pH 7.4 | scaled CLint | 39.7 L/h/kg
Cc1ncsc1-c1ccc([C@@H]2CCCCCCNC(=O)C[C@@H]3N=C(c4ccc(cc4)OCCCCCC(=O)N[C@@H](C(C)(C)C)C(=O)N4C[C@H](O)C[C@H]4C(=O)N2)c2c(sc(C)c2C)-n2c(C)nnc23)cc1 | rat, liver microsomes | 1 µM | scaled CLint | 0.918 L/h/kg
CCC1(CC)CC(=O)N(C2c3cc(C(=O)NC4c5ccccc5CC4O)ccc3OC2(C)COC)C(=N)N1 (stereo not shown) | rat, hepatocytes | – | hepatocyte CLint | 13.5 µL/min/10⁶ cells
COc1cc(C)c(C(N)=O)cn1 | male Wistar rat, hepatocytes | 1 µM, pH 7.4 | hepatocyte CLint | 6 µL/min/10⁶ cells
CNC(=O)C1CCCN(C(=O)C2CC3CCC2N3C(=O)[C@@H]2C[C@@H](O)CN2C(=O)NCc2cccc(Cl)c2F)C1 (mixture of isomers) | rat, liver microsomes | – | microsomal CLint | 4.4 µL/min/mg
Cc1ccc2c(c1)nc(NC(=O)c1cccc(C(F)(F)F)c1)n2[C@H]1CC[C@H](N)CC1 | rat, liver microsomes | – | microsomal CLint | 184 µL/min/mg

Repeated from above:
SMILES | system | setting | measurement | result
COc1cc(C)c(C(N)=O)cn1 | male Wistar rat, hepatocytes | 1 µM, pH 7.4 | hepatocyte CLint | 6 µL/min/10⁶ cells
